Experimental data pooled from the literature.
Each numbered part is a random draw from the data of one study; scales do not carry over between parts.
UniProt P08069, sequence (whole entry, looked up): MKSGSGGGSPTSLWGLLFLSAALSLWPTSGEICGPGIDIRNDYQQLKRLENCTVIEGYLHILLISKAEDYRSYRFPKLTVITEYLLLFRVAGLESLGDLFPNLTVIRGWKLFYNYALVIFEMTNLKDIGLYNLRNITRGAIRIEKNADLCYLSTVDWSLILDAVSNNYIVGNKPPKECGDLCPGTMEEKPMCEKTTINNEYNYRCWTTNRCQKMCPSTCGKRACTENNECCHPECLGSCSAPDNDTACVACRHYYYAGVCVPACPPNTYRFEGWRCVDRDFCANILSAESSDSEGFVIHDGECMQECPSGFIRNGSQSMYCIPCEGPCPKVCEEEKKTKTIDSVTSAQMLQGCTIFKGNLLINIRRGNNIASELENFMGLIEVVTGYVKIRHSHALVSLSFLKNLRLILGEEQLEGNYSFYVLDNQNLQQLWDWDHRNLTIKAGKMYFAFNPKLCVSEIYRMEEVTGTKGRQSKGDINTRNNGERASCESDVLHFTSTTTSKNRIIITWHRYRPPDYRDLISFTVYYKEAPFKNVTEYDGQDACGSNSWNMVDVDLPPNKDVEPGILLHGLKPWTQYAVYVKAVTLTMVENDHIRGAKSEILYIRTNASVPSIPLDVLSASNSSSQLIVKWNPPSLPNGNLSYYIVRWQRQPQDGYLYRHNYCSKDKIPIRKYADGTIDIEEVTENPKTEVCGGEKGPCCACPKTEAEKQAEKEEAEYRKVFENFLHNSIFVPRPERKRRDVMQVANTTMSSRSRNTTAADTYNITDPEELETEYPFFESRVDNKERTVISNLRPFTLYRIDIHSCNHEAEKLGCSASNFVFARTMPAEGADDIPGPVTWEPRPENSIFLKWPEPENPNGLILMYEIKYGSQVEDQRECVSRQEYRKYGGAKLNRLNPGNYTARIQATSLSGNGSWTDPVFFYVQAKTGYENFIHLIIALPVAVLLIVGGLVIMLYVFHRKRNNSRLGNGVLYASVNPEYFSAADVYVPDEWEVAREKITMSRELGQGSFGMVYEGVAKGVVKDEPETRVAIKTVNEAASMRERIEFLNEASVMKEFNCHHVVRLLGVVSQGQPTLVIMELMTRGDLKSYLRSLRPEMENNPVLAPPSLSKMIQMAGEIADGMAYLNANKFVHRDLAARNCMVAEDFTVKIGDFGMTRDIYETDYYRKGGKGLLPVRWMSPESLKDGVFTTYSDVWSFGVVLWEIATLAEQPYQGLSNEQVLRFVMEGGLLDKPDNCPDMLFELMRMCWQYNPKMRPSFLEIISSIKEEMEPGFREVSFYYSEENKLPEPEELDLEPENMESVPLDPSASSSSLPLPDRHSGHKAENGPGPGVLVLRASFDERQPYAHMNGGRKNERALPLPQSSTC
UniProt P42680, sequence (whole entry, looked up): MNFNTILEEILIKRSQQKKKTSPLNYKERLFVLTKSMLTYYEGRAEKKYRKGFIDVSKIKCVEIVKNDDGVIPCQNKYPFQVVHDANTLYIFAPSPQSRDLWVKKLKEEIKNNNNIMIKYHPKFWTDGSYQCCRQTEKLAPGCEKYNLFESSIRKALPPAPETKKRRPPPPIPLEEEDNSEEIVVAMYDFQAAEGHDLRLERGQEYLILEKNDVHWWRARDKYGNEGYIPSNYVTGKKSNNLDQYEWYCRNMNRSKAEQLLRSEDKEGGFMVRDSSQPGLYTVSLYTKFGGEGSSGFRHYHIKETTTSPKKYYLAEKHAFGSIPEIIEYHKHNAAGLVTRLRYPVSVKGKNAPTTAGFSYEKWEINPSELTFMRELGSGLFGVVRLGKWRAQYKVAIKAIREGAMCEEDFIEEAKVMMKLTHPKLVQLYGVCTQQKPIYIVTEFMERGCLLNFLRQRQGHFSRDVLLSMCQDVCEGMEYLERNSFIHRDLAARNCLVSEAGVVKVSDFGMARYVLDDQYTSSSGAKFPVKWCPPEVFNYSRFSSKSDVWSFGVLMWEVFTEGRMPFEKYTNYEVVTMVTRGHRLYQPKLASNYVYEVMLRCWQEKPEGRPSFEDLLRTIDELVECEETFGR
UniProt Q6P2M8, sequence (whole entry, looked up): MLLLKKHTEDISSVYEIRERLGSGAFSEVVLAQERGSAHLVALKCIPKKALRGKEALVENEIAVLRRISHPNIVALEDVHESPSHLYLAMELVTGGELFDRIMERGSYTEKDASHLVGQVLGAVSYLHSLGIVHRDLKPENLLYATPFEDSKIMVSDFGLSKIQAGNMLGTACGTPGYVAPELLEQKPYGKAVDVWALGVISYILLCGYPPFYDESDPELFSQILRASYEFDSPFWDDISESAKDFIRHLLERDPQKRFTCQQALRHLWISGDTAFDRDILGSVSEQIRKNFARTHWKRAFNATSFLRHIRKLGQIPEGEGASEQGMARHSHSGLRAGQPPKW
UniProt P23945, sequence (whole entry, looked up): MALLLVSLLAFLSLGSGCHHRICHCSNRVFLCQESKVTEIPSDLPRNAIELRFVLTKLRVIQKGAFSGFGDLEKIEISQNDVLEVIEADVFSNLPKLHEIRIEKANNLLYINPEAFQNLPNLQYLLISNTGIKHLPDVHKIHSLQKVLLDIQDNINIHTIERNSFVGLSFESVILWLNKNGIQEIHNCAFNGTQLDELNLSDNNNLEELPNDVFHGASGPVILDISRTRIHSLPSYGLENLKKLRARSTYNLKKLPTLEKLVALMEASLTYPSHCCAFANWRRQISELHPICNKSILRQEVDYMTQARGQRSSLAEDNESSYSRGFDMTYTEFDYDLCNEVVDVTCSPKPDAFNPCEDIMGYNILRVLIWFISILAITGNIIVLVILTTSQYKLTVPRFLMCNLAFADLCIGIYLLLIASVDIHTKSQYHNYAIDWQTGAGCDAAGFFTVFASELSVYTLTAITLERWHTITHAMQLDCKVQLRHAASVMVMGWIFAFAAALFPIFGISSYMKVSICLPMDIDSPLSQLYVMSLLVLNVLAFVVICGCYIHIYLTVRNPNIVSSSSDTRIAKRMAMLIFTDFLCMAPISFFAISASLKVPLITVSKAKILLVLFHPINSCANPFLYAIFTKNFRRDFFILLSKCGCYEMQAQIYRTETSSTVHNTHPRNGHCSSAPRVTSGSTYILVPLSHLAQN
UniProt P49840, sequence (whole entry, looked up): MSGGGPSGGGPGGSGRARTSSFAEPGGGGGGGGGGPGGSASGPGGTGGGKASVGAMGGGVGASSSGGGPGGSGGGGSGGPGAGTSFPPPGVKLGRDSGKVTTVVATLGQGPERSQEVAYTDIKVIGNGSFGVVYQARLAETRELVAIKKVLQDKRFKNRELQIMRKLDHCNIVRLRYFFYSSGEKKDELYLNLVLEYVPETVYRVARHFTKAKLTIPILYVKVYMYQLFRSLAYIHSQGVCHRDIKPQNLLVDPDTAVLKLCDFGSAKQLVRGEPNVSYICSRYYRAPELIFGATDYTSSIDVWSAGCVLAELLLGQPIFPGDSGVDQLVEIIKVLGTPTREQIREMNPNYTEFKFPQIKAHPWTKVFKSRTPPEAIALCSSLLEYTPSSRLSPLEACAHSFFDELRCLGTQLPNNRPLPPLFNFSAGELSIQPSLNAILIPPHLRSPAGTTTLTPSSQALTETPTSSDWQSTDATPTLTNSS
UniProt Q14012, sequence (whole entry, looked up): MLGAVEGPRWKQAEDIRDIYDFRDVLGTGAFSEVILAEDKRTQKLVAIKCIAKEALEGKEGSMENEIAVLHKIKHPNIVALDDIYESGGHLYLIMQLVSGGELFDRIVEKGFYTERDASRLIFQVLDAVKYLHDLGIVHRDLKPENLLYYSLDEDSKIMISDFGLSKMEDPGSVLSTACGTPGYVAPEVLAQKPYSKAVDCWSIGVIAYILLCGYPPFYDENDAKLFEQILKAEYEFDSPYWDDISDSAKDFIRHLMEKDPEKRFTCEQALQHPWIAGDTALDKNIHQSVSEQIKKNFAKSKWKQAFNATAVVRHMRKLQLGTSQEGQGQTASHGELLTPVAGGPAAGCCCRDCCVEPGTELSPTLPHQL
UniProt P30989, sequence (whole entry, looked up): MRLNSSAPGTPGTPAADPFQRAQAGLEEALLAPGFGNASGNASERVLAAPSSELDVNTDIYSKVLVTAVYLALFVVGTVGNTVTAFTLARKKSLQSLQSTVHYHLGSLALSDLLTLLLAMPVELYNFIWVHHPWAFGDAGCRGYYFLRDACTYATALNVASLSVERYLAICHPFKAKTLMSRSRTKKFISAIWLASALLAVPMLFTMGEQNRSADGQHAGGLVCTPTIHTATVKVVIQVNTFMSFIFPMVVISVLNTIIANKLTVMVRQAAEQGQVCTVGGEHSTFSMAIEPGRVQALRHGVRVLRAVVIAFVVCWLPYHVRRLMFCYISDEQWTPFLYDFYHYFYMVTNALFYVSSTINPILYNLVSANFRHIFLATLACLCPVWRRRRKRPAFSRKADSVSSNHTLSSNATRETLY

Block 1 — Structure (SMILES): NC(N)=NC(=O)c1nc(Cl)c(N2CCCCCC2)nc1N; effect on: β-arrestin recruitment; action: agonist; technique: PRESTO-Tango; tested at: 10 µM; relative to: untreated
It gave 1.17 for “fold over basal” (Lysophosphatidic acid receptor 1 (LPAR1, Homo sapiens, UniProt Q92633)).
The “fold over basal” was 0.96 fold (Follicle-stimulating hormone receptor (FSHR, Homo sapiens, UniProt P23945)).
Metabotropic glutamate receptor 4 (GRM4, Homo sapiens, UniProt Q14833) — “fold over basal”: 0.68 fold.
The “fold over basal” was 1 (Neurotensin receptor type 1 (NTSR1, Homo sapiens, UniProt P30989)).
The “fold over basal” was 1.09 (Neuropeptide Y receptor type 4 (NPY4R, Homo sapiens, UniProt P50391)).
Apelin receptor (APLNR, Homo sapiens, UniProt P35414) — “fold over basal”: 1.11.
It gave 0.7 fold for “fold over basal” (Histamine H3 receptor (HRH3, Homo sapiens, UniProt Q9Y5N1)).
D(2) dopamine receptor (DRD2, Homo sapiens, UniProt P14416) — “fold over basal”: 1.19.
It gave 0.73 for “fold over basal” (Muscarinic acetylcholine receptor M4 (CHRM4, Homo sapiens, UniProt P08173)).
The “fold over basal” was 1 (C-X-C chemokine receptor type 1 (CXCR1, Homo sapiens, UniProt P25024)).
Opsin-3 (OPN3, Homo sapiens, UniProt Q9H1Y3) — “fold over basal”: 1.01.
The “fold over basal” was 1.82 (Adhesion G-protein coupled receptor D1 (ADGRD1, Homo sapiens, UniProt Q6QNK2)).
The “fold over basal” was 0.7 (Relaxin receptor 2 (RXFP2, Homo sapiens, UniProt Q8WXD0)).
It gave 0.69 for “fold over basal” (Cannabinoid receptor 2 (CNR2, Homo sapiens, UniProt P34972)).
The “fold over basal” was 0.84 fold (Glucagon receptor (GCGR, Homo sapiens, UniProt P47871)).
It gave 1.36 for “fold over basal” (Adhesion G-protein coupled receptor F3 (ADGRF3, Homo sapiens, UniProt Q8IZF5)).
It gave 0.47 fold for “fold over basal” (Gastric inhibitory polypeptide receptor (GIPR, Homo sapiens, UniProt P48546)).

Block 2 — effect on: enzyme activity; action: inhibitor; tested at: 10 µM
Target: Calcium/calmodulin-dependent protein kinase type II subunit alpha (CAMK2A, Homo sapiens, UniProt Q9UQM7)
UniProt Q9UQM7, sequence (whole entry, looked up): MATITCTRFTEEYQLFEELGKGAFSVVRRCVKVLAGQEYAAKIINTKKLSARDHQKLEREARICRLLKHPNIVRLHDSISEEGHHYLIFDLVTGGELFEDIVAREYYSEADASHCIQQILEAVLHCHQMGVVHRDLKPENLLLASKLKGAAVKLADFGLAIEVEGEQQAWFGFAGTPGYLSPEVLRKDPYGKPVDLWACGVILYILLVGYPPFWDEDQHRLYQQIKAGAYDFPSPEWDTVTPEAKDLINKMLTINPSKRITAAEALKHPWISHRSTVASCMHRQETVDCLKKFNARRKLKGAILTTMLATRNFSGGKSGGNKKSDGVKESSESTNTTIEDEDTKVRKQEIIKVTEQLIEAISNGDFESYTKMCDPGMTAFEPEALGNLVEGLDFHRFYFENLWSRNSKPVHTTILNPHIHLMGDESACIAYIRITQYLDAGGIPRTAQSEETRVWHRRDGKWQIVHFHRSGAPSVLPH
With `CCCCCCCCCCCCCCCc1cccc(O)c1C(=O)O` the inhibition was -31%.
`Cc1nc2sccn2c(=O)c1CCN1CCC(=C(c2ccc(F)cc2)c2ccc(F)cc2)CC1` gave an inhibition of -11%.
For `Cc1ncccc1O`, the inhibition was -44%.
`O=C1CCc2cc(OCCCCc3nnnn3C3CCCCC3)ccc2N1` gave an inhibition of 4%.
The inhibition of `CN1C(C(=O)Nc2ccccn2)=C(O)c2sc(Cl)cc2S1(=O)=O` is reported as 20%.
`C/C1=C\CC[C@H](C)C(=O)C[C@@H](C(C)C)C(=O)C1` gave an inhibition of -8%.
For `O=[N+]([O-])c1ccc(O)c(O)c1`, the inhibition was 24%.
With `O=c1[nH]c(=O)c2ncn([C@@H]3O[C@H](CO)[C@@H](O)[C@H]3O)c2[nH]1` the inhibition was -32%.
`O=c1c(O)c(-c2ccccc2)oc2cc(O)cc(O)c12` gave an inhibition of -22%.
The inhibition of `COc1ccc(C[C@H]2COC(=O)[C@]2(O)Cc2ccc(O[C@@H]3O[C@H](CO)[C@@H](O)[C@H](O)[C@H]3O)c(OC)c2)cc1OC` is reported as 36%.
`O=C(O)CCC(=O)Nc1ccc(S(=O)(=O)Nc2nccs2)cc1` gave an inhibition of -6%.

Block 3 — SMILES: CCCCc1c(-c2ccc(O)cc2)[nH]c2nccnc12; effect on: enzyme activity; action: inhibitor; tested at: 0.5 µM; relative to: control
It gave 89.7% for remaining activity (Calcium/calmodulin-dependent protein kinase kinase 1 (CAMKK1, Homo sapiens, UniProt Q8N5S9)).
The remaining activity was 90.8% (Ribosomal protein S6 kinase alpha-3 (RPS6KA3, Homo sapiens, UniProt P51812)).
It gave 53.8% for remaining activity (Tyrosine-protein kinase JAK1 (JAK1, Homo sapiens, UniProt P23458)).
It gave 101% for remaining activity (SRSF protein kinase 1 (SRPK1, Homo sapiens, UniProt Q96SB4)).
For Protein kinase C zeta type (PRKCZ, Homo sapiens, UniProt Q05513): remaining activity read 97.4%.
Dual specificity protein kinase CLK2 (CLK2, Homo sapiens, UniProt P49760) — remaining activity: 76.4%.
Insulin-like growth factor 1 receptor (IGF1R, Homo sapiens, UniProt P08069) — remaining activity: 87.3%.
Ephrin type-A receptor 2 (EPHA2, Homo sapiens, UniProt P29317) — remaining activity: 81.7%.
It gave 86.3% for remaining activity (Vascular endothelial growth factor receptor 1 (FLT1, Homo sapiens, UniProt P17948)).
The remaining activity was 118% (Protein kinase C theta type (PRKCQ, Homo sapiens, UniProt Q04759)).
The remaining activity was 71% (Mitogen-activated protein kinase kinase kinase 20 (MAP3K20, Homo sapiens, UniProt Q9NYL2)).
It gave 92.5% for remaining activity (Calcium/calmodulin-dependent protein kinase type 1 (CAMK1, Homo sapiens, UniProt Q14012)).
It gave 102% for remaining activity (Casein kinase I isoform epsilon (CSNK1E, Homo sapiens, UniProt P49674)).
The remaining activity was 82% (Muscle, skeletal receptor tyrosine-protein kinase (MUSK, Homo sapiens, UniProt O15146)).
It gave 29.9% for remaining activity (Cyclin-dependent kinase 2, with cyclin E (CDK2, Homo sapiens, UniProt P24941)).
For Tyrosine-protein kinase Tec (TEC, Homo sapiens, UniProt P42680): remaining activity read 87.3%.
The remaining activity was 99.4% (Serine/threonine-protein kinase Sgk2 (SGK2, Homo sapiens, UniProt Q9HBY8)).
For Tyrosine-protein kinase receptor TYRO3 (TYRO3, Homo sapiens, UniProt Q06418): remaining activity read 99.6%.
For Serine/threonine-protein kinase PAK 1 (PAK1, Homo sapiens, UniProt Q13153): remaining activity read 81.4%.
For Casein kinase I isoform delta (CSNK1D, Homo sapiens, UniProt P48730): remaining activity read 93.7%.
For Dual specificity protein kinase CLK1 (CLK1, Homo sapiens, UniProt P49759): remaining activity read 97.9%.
The remaining activity was 95.9% (Serine/threonine-protein kinase SIK2 (SIK2, Homo sapiens, UniProt Q9H0K1)).

Block 4 — technique: competition with immobilised ligand; tested at: 1 µM
Structure (SMILES): Cc1c(C(=O)O)cc(-c2ccc(C3CCNCC3)cc2)c2ccc(-c3ccc(C(F)(F)F)cc3)cc12
Angiopoietin-1 receptor (TEK, Homo sapiens, UniProt Q02763); cell-free assay — remaining binding: 100%.
For Serine/threonine-protein kinase OSR1 (OXSR1, Homo sapiens, UniProt O95747); binding: remaining binding read 100%.
Mast/stem cell growth factor receptor Kit, autoinhibited (KIT, Homo sapiens, UniProt P10721); binding — remaining binding: 84%.
Serine/threonine-protein kinase PAK 5 (PAK5, Homo sapiens, UniProt Q9P286); cell-free assay — remaining binding: 98%.
Phosphatidylinositol 4,5-bisphosphate 3-kinase catalytic subunit beta isoform (PIK3CB, Homo sapiens, UniProt P42338); cell-free assay — remaining binding: 100%.
The remaining binding was 100% (Glycogen synthase kinase-3 alpha (GSK3A, Homo sapiens, UniProt P49840); cell-free assay).
The remaining binding was 100% (Calcium/calmodulin-dependent protein kinase type 1B (PNCK, Homo sapiens, UniProt Q6P2M8); cell-free assay).
It gave 97% for remaining binding (Receptor-interacting serine/threonine-protein kinase 4 (RIPK4, Homo sapiens, UniProt P57078); binding).
It gave 100% for remaining binding (Macrophage colony-stimulating factor 1 receptor (CSF1R, Homo sapiens, UniProt P07333); cell-free assay).
It gave 100% for remaining binding (Serine/threonine-protein kinase MRCK alpha (CDC42BPA, Homo sapiens, UniProt Q5VT25); cell-free assay).
For Cyclin-G-associated kinase (GAK, Homo sapiens, UniProt O14976); binding: remaining binding read 100%.
It gave 100% for remaining binding (Vascular endothelial growth factor receptor 3 (FLT4, Homo sapiens, UniProt P35916); cell-free assay).
Ribosomal protein S6 kinase alpha-5, C-terminal kinase domain (RPS6KA5, Homo sapiens, UniProt O75582); binding — remaining binding: 100%.
The remaining binding was 84% (cAMP-dependent protein kinase catalytic subunit beta (PRKACB, Homo sapiens, UniProt P22694); cell-free assay).
The remaining binding was 90% (Insulin-like growth factor 1 receptor (IGF1R, Homo sapiens, UniProt P08069); cell-free assay).
Serine/threonine-protein kinase 32B (STK32B, Homo sapiens, UniProt Q9NY57); binding — remaining binding: 100%.
It gave 100% for remaining binding (Protein-tyrosine kinase 2-beta (PTK2B, Homo sapiens, UniProt Q14289); cell-free assay).
The remaining binding was 100% (Serine/threonine-protein kinase Nek6 (NEK6, Homo sapiens, UniProt Q9HC98); binding).
It gave 100% for remaining binding (Interleukin-1 receptor-associated kinase 3 (IRAK3, Homo sapiens, UniProt Q9Y616); binding).
The remaining binding was 100% (Epidermal growth factor receptor (EGFR, Homo sapiens, UniProt P00533, G719C); cell-free assay).
The remaining binding was 100% (Dual specificity mitogen-activated protein kinase kinase 1 (MAP2K1, Homo sapiens, UniProt Q02750); binding).
For Tyrosine-protein kinase Tec (TEC, Homo sapiens, UniProt P42680); binding: remaining binding read 100%.
For Receptor-type tyrosine-protein kinase FLT3, autoinhibited (FLT3, Homo sapiens, UniProt P36888); binding: remaining binding read 100%.
The remaining binding was 73% (Serine/threonine-protein kinase TBK1 (TBK1, Homo sapiens, UniProt Q9UHD2); binding).
It gave 100% for remaining binding (Mitogen-activated protein kinase 15 (MAPK15, Homo sapiens, UniProt Q8TD08); binding).
